Assay results of several laboratories.
Lines come from different studies, so protocols differ. Several values in a cell are separate wells, animals, samples, runs or records. ± gives the spread as reported.
TRHR: Thyrotropin-releasing hormone receptor (TRHR, Homo sapiens, UniProt P34981)
Chain of UniProt P34981 (whole entry, looked up): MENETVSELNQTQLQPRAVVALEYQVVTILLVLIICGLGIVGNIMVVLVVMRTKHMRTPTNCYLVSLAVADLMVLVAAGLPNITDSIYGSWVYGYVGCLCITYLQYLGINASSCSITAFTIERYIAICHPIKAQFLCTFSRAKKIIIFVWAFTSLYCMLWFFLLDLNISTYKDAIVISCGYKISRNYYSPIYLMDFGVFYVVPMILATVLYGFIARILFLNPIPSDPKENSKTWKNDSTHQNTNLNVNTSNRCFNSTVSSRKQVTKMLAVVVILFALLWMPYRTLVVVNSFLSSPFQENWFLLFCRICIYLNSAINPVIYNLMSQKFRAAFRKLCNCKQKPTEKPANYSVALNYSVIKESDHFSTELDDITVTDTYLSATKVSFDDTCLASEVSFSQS
SRD5A1: 3-oxo-5-alpha-steroid 4-dehydrogenase 1 (SRD5A1, Homo sapiens, UniProt P18405)
Chain of UniProt P18405 (whole entry, looked up): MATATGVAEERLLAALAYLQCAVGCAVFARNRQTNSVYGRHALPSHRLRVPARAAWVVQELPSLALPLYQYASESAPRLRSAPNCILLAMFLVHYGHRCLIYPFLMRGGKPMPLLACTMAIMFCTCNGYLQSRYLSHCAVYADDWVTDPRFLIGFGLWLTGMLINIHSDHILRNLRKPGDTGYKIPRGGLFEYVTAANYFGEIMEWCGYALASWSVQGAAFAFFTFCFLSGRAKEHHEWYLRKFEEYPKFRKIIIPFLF
JAK2: Tyrosine-protein kinase JAK2 (JAK2, Homo sapiens, UniProt O60674)
Chain of UniProt O60674 (whole entry, looked up): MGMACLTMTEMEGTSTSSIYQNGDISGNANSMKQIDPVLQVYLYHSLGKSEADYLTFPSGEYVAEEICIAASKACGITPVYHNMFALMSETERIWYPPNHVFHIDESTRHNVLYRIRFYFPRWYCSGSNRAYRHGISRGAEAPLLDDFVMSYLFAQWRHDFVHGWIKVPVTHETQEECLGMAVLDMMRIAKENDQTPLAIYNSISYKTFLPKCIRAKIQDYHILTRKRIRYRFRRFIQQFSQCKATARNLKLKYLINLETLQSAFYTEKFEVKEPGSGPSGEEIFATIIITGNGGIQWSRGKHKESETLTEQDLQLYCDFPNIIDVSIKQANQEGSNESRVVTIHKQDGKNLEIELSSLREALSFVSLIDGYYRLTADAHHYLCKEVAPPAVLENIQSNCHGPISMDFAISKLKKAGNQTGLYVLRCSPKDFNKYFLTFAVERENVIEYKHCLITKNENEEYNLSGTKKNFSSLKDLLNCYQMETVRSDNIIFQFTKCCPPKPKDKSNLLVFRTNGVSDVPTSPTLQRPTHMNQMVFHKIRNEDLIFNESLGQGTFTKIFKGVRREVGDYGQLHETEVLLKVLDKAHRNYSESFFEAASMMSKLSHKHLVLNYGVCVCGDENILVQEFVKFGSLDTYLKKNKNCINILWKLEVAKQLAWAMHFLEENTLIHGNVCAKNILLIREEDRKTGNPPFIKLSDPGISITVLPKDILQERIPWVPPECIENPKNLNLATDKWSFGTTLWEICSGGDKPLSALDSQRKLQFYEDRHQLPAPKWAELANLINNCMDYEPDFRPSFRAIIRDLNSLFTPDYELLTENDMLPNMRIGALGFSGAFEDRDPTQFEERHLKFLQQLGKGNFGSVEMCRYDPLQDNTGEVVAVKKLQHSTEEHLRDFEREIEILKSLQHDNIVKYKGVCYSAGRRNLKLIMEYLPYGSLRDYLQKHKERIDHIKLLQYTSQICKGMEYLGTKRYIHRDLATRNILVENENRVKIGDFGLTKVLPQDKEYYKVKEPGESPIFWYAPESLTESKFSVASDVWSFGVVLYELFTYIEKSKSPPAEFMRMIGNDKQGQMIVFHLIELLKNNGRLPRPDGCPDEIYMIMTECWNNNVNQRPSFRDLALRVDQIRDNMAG
SIRT2: NAD-dependent protein deacetylase sirtuin-2 (SIRT2, Homo sapiens, UniProt Q8IXJ6)
Chain of UniProt Q8IXJ6 (whole entry, looked up): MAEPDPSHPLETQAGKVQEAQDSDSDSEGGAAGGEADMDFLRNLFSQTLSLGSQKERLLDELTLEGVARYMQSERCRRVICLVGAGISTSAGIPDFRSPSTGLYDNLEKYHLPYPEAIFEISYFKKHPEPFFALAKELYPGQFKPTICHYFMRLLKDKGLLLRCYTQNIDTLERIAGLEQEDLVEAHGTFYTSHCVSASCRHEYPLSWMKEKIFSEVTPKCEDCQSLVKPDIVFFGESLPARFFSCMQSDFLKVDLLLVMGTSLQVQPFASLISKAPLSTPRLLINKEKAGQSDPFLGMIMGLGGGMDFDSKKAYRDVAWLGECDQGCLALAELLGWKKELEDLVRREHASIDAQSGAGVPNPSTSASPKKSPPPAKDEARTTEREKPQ
ADRA1B: Alpha-1B adrenergic receptor (ADRA1B, Homo sapiens, UniProt P35368)
Chain of UniProt P35368 (whole entry, looked up): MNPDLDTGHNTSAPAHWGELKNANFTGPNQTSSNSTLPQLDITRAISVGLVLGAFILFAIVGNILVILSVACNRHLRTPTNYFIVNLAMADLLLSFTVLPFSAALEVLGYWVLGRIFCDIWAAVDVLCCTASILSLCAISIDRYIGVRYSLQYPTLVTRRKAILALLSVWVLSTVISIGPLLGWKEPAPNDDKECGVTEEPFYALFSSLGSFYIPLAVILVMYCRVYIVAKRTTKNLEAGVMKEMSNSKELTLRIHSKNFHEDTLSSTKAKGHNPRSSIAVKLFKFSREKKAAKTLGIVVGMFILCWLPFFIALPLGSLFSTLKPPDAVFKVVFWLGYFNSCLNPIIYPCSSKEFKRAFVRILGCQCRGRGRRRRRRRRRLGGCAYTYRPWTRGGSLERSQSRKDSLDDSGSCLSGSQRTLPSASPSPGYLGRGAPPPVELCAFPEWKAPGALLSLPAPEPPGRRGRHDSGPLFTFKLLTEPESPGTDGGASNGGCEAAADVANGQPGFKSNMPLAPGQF
PRKAA2 with beta1 gamma3: 5'-AMP-activated protein kinase catalytic subunit alpha-2, with beta1 gamma3 (PRKAA2, Homo sapiens, UniProt P54646)
NR3C1: Glucocorticoid receptor (NR3C1, Homo sapiens, UniProt P04150)
Chain of UniProt P04150 (whole entry, looked up): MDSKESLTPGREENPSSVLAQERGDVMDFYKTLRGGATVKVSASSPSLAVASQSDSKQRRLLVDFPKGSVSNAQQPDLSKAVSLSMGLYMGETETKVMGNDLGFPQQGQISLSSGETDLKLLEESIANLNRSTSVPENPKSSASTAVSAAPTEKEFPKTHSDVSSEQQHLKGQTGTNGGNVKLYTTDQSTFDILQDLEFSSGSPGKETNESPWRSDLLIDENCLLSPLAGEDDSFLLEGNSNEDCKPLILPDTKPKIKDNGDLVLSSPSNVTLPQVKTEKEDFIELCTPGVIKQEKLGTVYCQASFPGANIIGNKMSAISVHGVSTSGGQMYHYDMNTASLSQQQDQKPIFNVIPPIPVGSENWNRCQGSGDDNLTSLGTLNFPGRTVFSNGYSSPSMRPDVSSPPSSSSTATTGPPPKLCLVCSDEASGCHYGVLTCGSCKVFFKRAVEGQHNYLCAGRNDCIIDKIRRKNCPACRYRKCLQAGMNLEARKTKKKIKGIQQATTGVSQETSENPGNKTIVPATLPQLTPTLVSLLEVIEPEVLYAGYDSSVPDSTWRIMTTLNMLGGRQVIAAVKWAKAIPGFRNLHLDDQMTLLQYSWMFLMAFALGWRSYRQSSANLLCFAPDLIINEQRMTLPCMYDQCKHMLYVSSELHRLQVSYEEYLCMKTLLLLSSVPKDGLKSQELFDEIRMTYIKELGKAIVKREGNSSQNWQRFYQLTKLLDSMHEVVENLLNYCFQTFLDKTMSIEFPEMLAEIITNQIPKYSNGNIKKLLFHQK
CTSB: Cathepsin B (CTSB, Homo sapiens, UniProt P07858)
HTR3A: 5-hydroxytryptamine receptor 3A (HTR3A, Homo sapiens, UniProt P46098)
Chain of UniProt P46098 (whole entry, looked up): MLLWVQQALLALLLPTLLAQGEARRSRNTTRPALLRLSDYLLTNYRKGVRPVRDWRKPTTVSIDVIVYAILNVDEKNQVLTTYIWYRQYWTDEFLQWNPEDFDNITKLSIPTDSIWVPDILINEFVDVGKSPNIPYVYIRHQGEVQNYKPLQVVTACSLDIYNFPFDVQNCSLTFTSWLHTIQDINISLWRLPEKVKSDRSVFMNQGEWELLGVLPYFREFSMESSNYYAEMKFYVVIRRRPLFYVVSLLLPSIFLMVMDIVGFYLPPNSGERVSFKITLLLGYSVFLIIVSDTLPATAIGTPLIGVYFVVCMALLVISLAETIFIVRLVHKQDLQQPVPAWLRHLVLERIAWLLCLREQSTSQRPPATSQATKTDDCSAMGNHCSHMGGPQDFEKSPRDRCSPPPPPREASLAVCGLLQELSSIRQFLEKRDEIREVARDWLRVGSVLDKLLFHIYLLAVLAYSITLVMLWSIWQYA
AGER: Advanced glycosylation end product-specific receptor (AGER, Homo sapiens, UniProt Q15109)
Chain of UniProt Q15109 (whole entry, looked up): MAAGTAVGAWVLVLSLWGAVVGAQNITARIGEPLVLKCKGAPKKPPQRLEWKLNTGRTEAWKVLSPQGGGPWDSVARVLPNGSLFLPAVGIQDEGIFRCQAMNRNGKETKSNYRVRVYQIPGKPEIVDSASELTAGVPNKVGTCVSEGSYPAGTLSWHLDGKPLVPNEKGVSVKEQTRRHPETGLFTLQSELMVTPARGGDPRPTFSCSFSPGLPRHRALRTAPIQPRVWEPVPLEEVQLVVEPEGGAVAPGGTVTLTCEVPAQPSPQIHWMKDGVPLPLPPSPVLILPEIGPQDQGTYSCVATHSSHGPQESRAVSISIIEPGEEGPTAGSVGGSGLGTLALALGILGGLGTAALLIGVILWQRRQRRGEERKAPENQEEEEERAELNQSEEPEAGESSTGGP
Chain of UniProt P21396 (whole entry, looked up): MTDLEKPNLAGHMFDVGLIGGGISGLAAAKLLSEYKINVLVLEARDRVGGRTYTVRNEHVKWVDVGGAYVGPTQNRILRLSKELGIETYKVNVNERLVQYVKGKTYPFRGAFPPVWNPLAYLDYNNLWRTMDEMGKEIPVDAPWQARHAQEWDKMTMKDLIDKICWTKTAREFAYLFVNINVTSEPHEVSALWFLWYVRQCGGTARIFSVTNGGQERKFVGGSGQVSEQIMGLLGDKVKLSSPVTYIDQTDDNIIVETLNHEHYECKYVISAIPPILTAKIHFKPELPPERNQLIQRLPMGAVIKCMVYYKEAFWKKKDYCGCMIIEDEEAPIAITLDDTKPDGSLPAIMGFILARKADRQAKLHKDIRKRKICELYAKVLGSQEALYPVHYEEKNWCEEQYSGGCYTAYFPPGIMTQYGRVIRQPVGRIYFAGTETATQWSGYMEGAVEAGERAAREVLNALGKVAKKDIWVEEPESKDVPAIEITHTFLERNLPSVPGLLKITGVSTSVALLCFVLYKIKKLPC

| Structure (SMILES) | target | assay | system | setting | inhibition |
| --- | --- | --- | --- | --- | --- |
| C[Si]1(C[C@H](CN)CC(=O)O)CCCC1 | TRHR | ligand displacement, radioligand | – | 70 µM | -14% |
| CCn1cc(C(=O)O)c(=O)c2c(N)c(F)c(NC3CCCCC3)cc21 | 5'-AMP-activated protein kinase catalytic subunit alpha-2, with beta1 gamma2 (PRKAA2, Homo sapiens, UniProt P54646) | kinase activity | – | 0.1 µM, added: ATP at Km | 0.4% |
| Cc1cccc(-n2nc(S)sc2=S)c1 | Adenylate cyclase type 10 (Homo sapiens, UniProt Q96PN6) | inhibitor | – | 10 µM | 58.1% |
| O=C(NCCCCc1ccccc1)n1c(=O)oc2cc(-c3ccc(F)cc3)ccc21 | Caspase-3 (CASP3, Homo sapiens, UniProt P42574) | enzyme activity, inhibitor | – | 10 µM | 1.9% |
| COCC(=O)N1CCc2cc(-c3csc(NC(=O)c4cc(OC)cc(OC)c4)n3)ccc21 | nicotinic acetylcholine receptor, human | radioligand binding | – | 10 µM | 0% |
| O=C1CO[C@H](CNC(=O)C2(c3ccc(Cl)cc3)CC2)CN1C1Cc2ccccc2C1 | C-X-C chemokine receptor type 1 (CXCR1, Homo sapiens, UniProt P25024) | β-arrestin recruitment, antagonist | – | 1 µM | 7% |
| COC(=O)/C=C/c1ccc(O)c(O)c1 | SRD5A1 | enzyme activity in cells, inhibitor | HaCaT | 50 µM | 36.2% |
| Cc1cnc2nc1Nc1cccc(c1)COCc1cc(ccc1OCCN1CCOCC1)N2 | JAK2 | inhibitor, Z'-LYTE kinase | – | 0.4572 nM | 20.5% and 8.47% and 21.7% |
| N#C/C(=C\c1ccc(-c2cc(Cl)ccc2Cl)o1)C(=O)Nc1cccc2ncccc12 | SIRT2 | enzyme activity, inhibitor | – | 10 µM | < 5% |
| CC(C)Cn1c(SCC(=O)N2CCc3ccccc3C2)nc2cc(Cl)ccc2c1=O | ADRA1B | ligand displacement, radioligand | – | 10 µM | -1% |
| O=C1c2sc(-c3ccc(N4CCC(F)C4)nc3F)nc2CCN1c1cccnc1 (centres unmarked) | Amine oxidase [flavin-containing] A (Maoa, Rattus norvegicus, UniProt P21396) | ligand displacement, radioligand | – | 1 µM | 2% |
| CC(=S)NCCCC[C@H](NC(=O)OCc1ccccc1)C(=O)N[C@@H](Cc1c[nH]c2ccccc12)C(=O)NC(C)C | SIRT2 | enzyme activity, inhibitor | – | 1 µM | 14% |
| CN(C)C/C=C/C(=O)Nc1ccc2nc(NCCCCCN(C)C)nc(NCCCCCCN(C)C)c2c1 | DNA (cytosine-5)-methyltransferase 3B, with DNMT3L (DNMT3B, Homo sapiens, UniProt Q9UBC3) | enzyme activity | – | 50 µM | -10% |
| CC(=O)C12NC(C)(C)CC1(C)C(=O)C1=C2c2c(c3c4n2C(C)(C)CC2=C4C4(CC(C)(C)NC(C)(C4)C2=O)CC3(C)C)C(=O)C(C)(C)N1 (single isomer, unassigned; (-)) | Transient receptor potential cation channel subfamily V member 1 (TRPV1, Homo sapiens, UniProt Q8NER1) | ion current, inhibitor, patch clamp | HEK-293T | 50 µM | 13.3% |
| C=CC(=O)N1Cc2nc(-c3cc(-c4cc(Cl)cnc4Cl)c(F)cc3F)n(-c3ccncn3)c2C1 | PRKAA2 with beta1 gamma3 | kinome panel | – | 1 µM | -1.1% |
| Cn1ccc2cc(-n3c(=O)[nH]c4sc5c(c4c3=O)CCCC5)ccc21 | NR3C1 | cell-free assay, radioligand | – | 10 µM | 9% |
| Cc1ccc(CNC(=O)C(CCc2ccccc2)NC(=O)C(NC(=O)Cc2cccc(Oc3ccccc3)c2)C(C)O)cc1 (centres unmarked) | CTSB | enzyme activity, inhibitor | – | 100 µM | -3% |
| C=CC(=O)Nc1cccc(-c2cnc3[nH]cc(C(=O)NC(C)(C)C)c3n2)c1 | CK1 | – | – | 0.1 µM | 8% and 9% |
| O=C1c2sc(-c3ccc(N4CCC(CO)CC4)nc3F)nc2CCN1c1cccnc1 | ADRA1B | ligand displacement, radioligand | – | 1 µM | -3% |
| C[Si](C)(C)C[C@H](CN)CC(=O)O | TRHR | ligand displacement, radioligand | – | 250 µM | -12% |
| c1ccc(OC[C@H]2CN(CCN3CCc4ccccc43)CCO2)nc1 | HTR3A | radioligand binding | – | concentration not given, added: [3H]GR65630 | 24% |
| Cc1ccc(CNC(=O)[C@H](CCc2ccccc2)NC(=O)[C@H](CCc2ccccc2)NC(=O)Cc2cccc(Oc3ccccc3)c2)cc1 | CTSB | enzyme activity, inhibitor | – | 100 µM | 15% |
| CCCCCNC(=O)N1N=C(c2ccc(NC(=O)Nc3ccc(Cl)cc3)cc2)CC1c1ccc(Br)cc1 (centres unmarked) | AGER | – | – | 100 µM | 32% |
| CC(C)C[C@H](NC(=O)[C@H](Cc1ccccc1)NC(=O)[C@H](CCONC(=N)N)NC(=O)[C@H](C)N)B(O)O | Proteasome subunit beta type-3/PSMB7 (Homo sapiens, UniProt P49720+Q99436) | trypsin-like activity, inhibitor | human constitutive proteasome | 5 nM, added: Boc-LRR-AMC | inhibited |

| Structure (SMILES) | target | assay | system | setting | inhibition |
| --- | --- | --- | --- | --- | --- |
| COc1cc(/C=C/C(=O)Oc2cc(C(F)(F)F)cc(C(F)(F)F)c2)ccc1OC(C)=O | SRD5A1 | enzyme activity in cells, inhibitor | HaCaT | 50 µM | 18.9% |
| COc1ccc(C(=O)Nc2c(-c3cccs3)nc3ccccn23)cc1 | ADRA1B | ligand displacement, radioligand | – | 10 µM | < 50% |
| O=C(Nc1ccc(Cl)cc1)Nc1ccc(C2=NNC(c3ccc(Cl)cc3)C2)cc1 (centres unmarked) | AGER | – | – | 100 µM | 41% |
| COc1ncc2nc(C)n(Cc3ncc(S(N)(=O)=O)cc3F)c2c1-c1ccccc1 | HTR3A | antagonist, cell-based | – | 10 µM | 1.86% |
| Cc1ccc(N(O)/N=N/c2ccc(S(=O)(=O)Nc3nccs3)cc2)cc1 | α-glucosidase, rat intestine | enzyme activity | – | 20 µg/mL, added: 4-nitrophenyl α-D-glucopyranoside | 7.5 ± 0.09% |
| O=C(NC1CCC1)[C@H](Cc1c[nH]c2ccccc12)NC(=O)[C@H](CCCCNC(=S)Nc1ccc(F)c(O)c1F)NS(=O)(=O)c1cccc(F)c1 | SIRT2 | enzyme activity, inhibitor | – | 30 µM | 26% |
| COc1cc2c(cc1OC)-c1cc3ccc(OC)c(OC)c3c[n+]1CC2.[Cl][Fe-]([Cl])([Cl])[Cl] | lipase | enzyme activity | – | 0.8 mM, 30 min, 37 °C | 68.2% |
| Cc1cnc2nc1Nc1cccc(c1)COCCCCOCc1cc(ccc1OCCN1CCCC1)N2 | JAK2 | inhibitor, Z'-LYTE kinase | – | 41.15 nM | 3.37% and 8.98% and 8.95% |
| CC[C@H](C)[C@@H]1NC(=O)[C@H](Cc2ccccc2C(F)(F)F)NC(=O)CCSCc2cccc(n2)CSCCCNC(=O)[C@H](CCCCCC(=O)O)NC1=O | Histone deacetylase 2 (HDAC2, Homo sapiens, UniProt Q92769) | enzyme activity, inhibitor, fluorogenic | – | 30 µM | 15% |
| Cc1cnc2nc1Nc1cc(F)cc(c1)COC/C=C/COCc1cc(ccc1OCCN1CCCC1)N2 | JAK2 | inhibitor, Z'-LYTE kinase | – | 111.1 nM | 93.8% and 91.4% |
| COc1ccc(C#CC2=C[C@H]3C[C@@]4(OC(=O)C=C24)[C@H]2CC[C@H](C(OC)OC)N32)cc1 | NR3C1 | ligand displacement, radioligand | – | 10 µM | 94% |
| CN1CC[C@@H](COc2cnc(C#N)cc2-c2ccn3nc(NC(=O)C4CC4)cc3c2)C1 | [Pyruvate dehydrogenase (acetyl-transferring)] kinase isozyme 2, mitochondrial (PDK2, Homo sapiens, UniProt Q15119) | enzyme activity, inhibitor | – | 1 µM | 22% |
| CCCCCNC(=O)N1N=C(c2ccc(Cl)cc2)CC1c1ccc(NC(=O)Nc2ccc(Cl)cc2)cc1 (centres unmarked) | AGER | – | – | 100 µM | 89% |
| COc1cc(/C=C/C(=O)Oc2ccc(C(F)(F)F)c(C(F)(F)F)c2)ccc1O | SRD5A1 | enzyme activity in cells, inhibitor | HaCaT | 5 µM | 45.8% |
| Cc1cnc2nc1Nc1cccc(c1)COC/C=C/COCc1cc(ccc1OCCN1CCOCC1)N2 | JAK2 | inhibitor, Z'-LYTE kinase | – | 0.06104 nM | 16% and 15.4% and 12.1% |
| Cc1[nH]nc2c1N=C(c1ccccc1Cl)c1cnc(N3CCOCC3)cc1N2 | Voltage-dependent N-type calcium channel subunit alpha-1B (Cacna1b, Rattus norvegicus, UniProt Q02294) | ligand displacement | – | 10 µM | 3% |
| O=C(Nc1ccc(Cl)cc1)Nc1ccc(C2CC(c3ccc(Cl)cc3)=NN2C(=O)Nc2ccc(Cl)cc2)cc1 (centres unmarked) | AGER | – | – | 100 µM | 38% |
| CS(=O)(=O)Nc1cccc(-c2csc3cnc(Nc4ccc(N5CCN(CCCCCOc6cccc7c6C(=O)N(C6CCC(=O)NC6=O)C7=O)CC5)cc4)nc23)c1 (centres unmarked) | Acylglycerol kinase, mitochondrial (Homo sapiens, UniProt Q53H12) | probe labelling, inhibitor, KiNativ chemoproteomics | MOLT-4 | 1 µM | 5.3% |
| CC1Cc2ccccc2N1C(=O)CN1CCN(c2ccccc2)CC1 (centres unmarked) | D(1B) dopamine receptor (DRD5, Homo sapiens, UniProt P21918) | radioligand binding | – | concentration not given, added: [3H]SCH23390 | 18% |
| COc1ccc(NC(=O)Nc2ccc(C3=NNC(c4ccc(Cl)cc4)C3)cc2)cc1 (centres unmarked) | AGER | – | – | 100 µM | 1% |
| CC(=O)N(C)Cc1cccc(-c2cc3c(c(C(F)(F)F)c2)CCCC3N(C)C(=O)COC[C@@H]2CCNC[C@@H]2F)c1 (mixture of isomers) | Translation initiation factor eIF2B subunit beta/Translation initiation factor eIF2B subunit delta (Homo sapiens, UniProt P49770+Q9UI10) | ligand displacement, TR-FRET | – | 100 mM | 76% |
| CN1CCN(Cc2ccc(-c3ccc(CO[C@H]4CCC[C@@H]4NC(=O)c4cc(-c5cnn(C)c5)cnc4N)cc3)cc2)CC1 | PRKAA2 with beta1 gamma3 | SelectScreen kinase profiling | – | 0.1 µM | 8% |
| C/C=C/C(=O)Nc1ccc2nc(NCCCCCN(C)C)nc(NCCCCCCN(C)C)c2c1 | Protein arginine N-methyltransferase 5 (PRMT5, Homo sapiens, UniProt O14744) | enzyme activity, inhibitor, radiometric | – | 50 µM | 3% |

A few entries again:
| Structure (SMILES) | target | assay | system | setting | inhibition |
| --- | --- | --- | --- | --- | --- |
| O=C(NC1CCC1)[C@H](Cc1c[nH]c2ccccc12)NC(=O)[C@H](CCCCNC(=S)Nc1ccc(F)c(O)c1F)NS(=O)(=O)c1cccc(F)c1 | SIRT2 | enzyme activity, inhibitor | – | 30 µM | 26% |
| COc1cc2c(cc1OC)-c1cc3ccc(OC)c(OC)c3c[n+]1CC2.[Cl][Fe-]([Cl])([Cl])[Cl] | lipase | enzyme activity | – | 0.8 mM, 30 min, 37 °C | 68.2% |
| Cc1cnc2nc1Nc1cccc(c1)COCCCCOCc1cc(ccc1OCCN1CCCC1)N2 | JAK2 | inhibitor, Z'-LYTE kinase | – | 41.15 nM | 3.37% and 8.98% and 8.95% |
| CC[C@H](C)[C@@H]1NC(=O)[C@H](Cc2ccccc2C(F)(F)F)NC(=O)CCSCc2cccc(n2)CSCCCNC(=O)[C@H](CCCCCC(=O)O)NC1=O | Histone deacetylase 2 (HDAC2, Homo sapiens, UniProt Q92769) | enzyme activity, inhibitor, fluorogenic | – | 30 µM | 15% |
| Cc1cnc2nc1Nc1cc(F)cc(c1)COC/C=C/COCc1cc(ccc1OCCN1CCCC1)N2 | JAK2 | inhibitor, Z'-LYTE kinase | – | 111.1 nM | 93.8% and 91.4% |
| COc1ccc(C#CC2=C[C@H]3C[C@@]4(OC(=O)C=C24)[C@H]2CC[C@H](C(OC)OC)N32)cc1 | NR3C1 | ligand displacement, radioligand | – | 10 µM | 94% |
